Published values gathered from unrelated publications.
Each line is one published result; not all experiments were run side by side. “And” joins repeats or separate records; there may be more than shown. ± gives the spread as reported.

Structure (SMILES) | species | matrix | route | dose | notes | Tmax
C/C(N)=N/C(=N\S(=O)(=O)c1ccc(C(F)(F)F)cc1)N1C[C@H](c2ccccc2)C(c2ccc(Cl)cc2)=N1 | C57BL/6 mouse male | adipose tissue | intravenous | 10 mg/kg | – | 120 min
CC[C@H](C)[C@H](NC(=O)[C@H](CC(C)C)NC(=O)[C@H](Cc1c[nH]cn1)NC(=O)[C@H](Cc1c[nH]cn1)NC(=O)[C@H](CC(C)C)NC(=O)[C@H](Cc1c[nH]c2ccccc12)NC(=O)[C@H](Cc1ccccc1)NC(=O)[C@H](CCCNC(=N)N)NC(=O)[C@H](CCCNC(=N)N)NC(=O)[C@H](CCCNC(=N)N)NC(=O)[C@H](CC(C)C)NC(=O)[C@H](CC(=O)O)NC(=O)[C@H](CCC(N)=O)NC(=O)[C@@H](NC(=O)[C@H](CO)NC(=O)[C@H](CCCCN)NC(=O)[C@@H](Cc1c[nH]c2ccccc12)NC(=O)[C@H](CC(C)C)NC(=O)[C@H](CC(=O)O)NC(=O)[C@H](Cc1c[nH]cn1)NC(=O)[C@H](CC(C)C)NC(=O)[C@@H](N)CC(C)C)[C@@H](C)CC)C(=O)N[C@@H](C)C(=O)N[C@@H](CCC(=O)O)C(=O)N[C@H](C(=O)N[C@@H](Cc1c[nH]cn1)C(=O)N[C@H](C(=O)N[C@@H](C)C(=O)N[C@@H](CCC(=O)O)C(=O)N[C@@H](Cc1ccc(O)cc1)C(N)=O)[C@@H](C)O)[C@@H](C)CC | mouse | blood | subcutaneous | – | – | 10 min
Cc1[nH]nc2c1N=C(c1ccccc1Cl)c1cnc(N3CCOCC3)cc1N2 | nude mouse HCC1806 xenograft | plasma | oral | 5 mg/kg once daily | – | 60 min
Cc1nn(-c2nc3c(F)cc(F)cc3s2)c(O)c1C(c1ccc(C(F)(F)F)cc1)c1c(C)nn(-c2nc3c(F)cc(F)cc3s2)c1O | ICR mouse | plasma | oral | 50 mg/kg | – | 30 min and 60 min
O=C(NS(=O)(=O)c1cccs1)c1cc2ccccc2n1Cc1ccc(Br)c2ccccc12 | mouse | plasma | oral | 1 mg/kg | – | 15 min
CN[C@H](CC(C)C)C(=O)N[C@H]1C(=O)N[C@@H](CC(N)=O)C(=O)N[C@H]2C(=N)N[C@H]3C(=O)N[C@H](C(=O)N[C@H](C(=O)NCCC[N+](C)(C)C)c4cc(O)cc(O)c4-c4cc3ccc4O)[C@H](O)c3ccc(c(Cl)c3)Oc3cc2cc(c3O[C@@H]2O[C@H](CO)[C@@H](O)[C@H](O)[C@H]2O[C@H]2C[C@](C)(NCc3ccc(-c4ccc(Cl)cc4)cc3)[C@H](O)[C@H](C)O2)Oc2ccc(cc2Cl)[C@H]1O | mouse | – | intravenous | 50 mg/kg | – | 13.2 min
O=S(=O)(N[C@H]1CCC[C@@H](N2c3ccccc3CCc3ccccc32)[C@@H]1O)c1ccc(OC(F)(F)F)cc1 | mouse | plasma | oral | 100 mg/kg | suspension | 240 min
Cc1ccc(OCC(=O)N(Cc2cccs2)c2ccn[nH]2)cc1 | male CD-1 mouse | plasma | oral | 30 mg/kg | – | 15 min
Cc1ccc(=O)n(-c2ccc(O)cc2)c1 | BALB/c mouse | plasma | oral | 1.0 mmol/kg | – | 30 min
CN[C@H](CC(C)C)C(=O)N[C@H]1C(=O)N[C@@H](CC(N)=O)C(=O)N[C@H]2CN[C@H]3C(=O)N[C@H](C(=O)N[C@H](C(=O)NCCCNC(=N)N)c4cc(O)cc(O)c4-c4cc3ccc4O)[C@H](O)c3ccc(c(Cl)c3)Oc3cc2cc(c3O[C@@H]2O[C@H](CO)[C@@H](O)[C@H](O)[C@H]2O[C@H]2C[C@](C)(NCc3ccc(-c4ccc(Cl)cc4)cc3)[C@H](O)[C@H](C)O2)Oc2ccc(cc2Cl)[C@H]1O | mouse | – | intravenous | 10 mg/kg | – | 16.8 min
O=C1CCC(N2Cc3cc(C(=O)O)c(F)cc3C2=O)C(=O)N1 (centres unmarked) | male CD-1 mouse | plasma | oral | 10 mg/kg of parent drug | – | 54 ± 12 min

Some of these lines once more:
Structure (SMILES) | species | matrix | route | dose | notes | Tmax
CC[C@H](C)[C@H](NC(=O)[C@H](CC(C)C)NC(=O)[C@H](Cc1c[nH]cn1)NC(=O)[C@H](Cc1c[nH]cn1)NC(=O)[C@H](CC(C)C)NC(=O)[C@H](Cc1c[nH]c2ccccc12)NC(=O)[C@H](Cc1ccccc1)NC(=O)[C@H](CCCNC(=N)N)NC(=O)[C@H](CCCNC(=N)N)NC(=O)[C@H](CCCNC(=N)N)NC(=O)[C@H](CC(C)C)NC(=O)[C@H](CC(=O)O)NC(=O)[C@H](CCC(N)=O)NC(=O)[C@@H](NC(=O)[C@H](CO)NC(=O)[C@H](CCCCN)NC(=O)[C@@H](Cc1c[nH]c2ccccc12)NC(=O)[C@H](CC(C)C)NC(=O)[C@H](CC(=O)O)NC(=O)[C@H](Cc1c[nH]cn1)NC(=O)[C@H](CC(C)C)NC(=O)[C@@H](N)CC(C)C)[C@@H](C)CC)C(=O)N[C@@H](C)C(=O)N[C@@H](CCC(=O)O)C(=O)N[C@H](C(=O)N[C@@H](Cc1c[nH]cn1)C(=O)N[C@H](C(=O)N[C@@H](C)C(=O)N[C@@H](CCC(=O)O)C(=O)N[C@@H](Cc1ccc(O)cc1)C(N)=O)[C@@H](C)O)[C@@H](C)CC | mouse | blood | subcutaneous | – | – | 10 min
